Experimental data pooled from the literature.
Lines come from different studies, so protocols differ. “And” joins repeats or separate records; there may be more than shown. ± marks the error that the study gave.
PFF0160c E182D: Dihydroorotate dehydrogenase (quinone), mitochondrial (PFF0160c, Plasmodium falciparum, UniProt Q08210, E182D)
ADRA1A: Alpha-1A adrenergic receptor (ADRA1A, Homo sapiens, UniProt P35348)
Sequence of UniProt P35348 (whole entry, looked up): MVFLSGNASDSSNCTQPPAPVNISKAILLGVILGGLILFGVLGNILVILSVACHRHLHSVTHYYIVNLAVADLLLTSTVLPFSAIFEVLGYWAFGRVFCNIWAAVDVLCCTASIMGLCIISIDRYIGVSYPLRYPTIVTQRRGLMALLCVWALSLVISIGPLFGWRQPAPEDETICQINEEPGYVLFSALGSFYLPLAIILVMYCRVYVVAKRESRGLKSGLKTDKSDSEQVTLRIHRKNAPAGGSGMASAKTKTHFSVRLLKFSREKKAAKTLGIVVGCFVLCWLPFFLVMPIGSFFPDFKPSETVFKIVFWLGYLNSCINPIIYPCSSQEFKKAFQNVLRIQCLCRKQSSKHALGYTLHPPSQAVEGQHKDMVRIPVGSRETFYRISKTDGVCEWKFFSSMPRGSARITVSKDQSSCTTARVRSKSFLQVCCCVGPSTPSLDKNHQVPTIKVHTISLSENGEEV
ACHE: Acetylcholinesterase (ACHE, Homo sapiens, UniProt P22303)
Sequence of UniProt P27361 (whole entry, looked up): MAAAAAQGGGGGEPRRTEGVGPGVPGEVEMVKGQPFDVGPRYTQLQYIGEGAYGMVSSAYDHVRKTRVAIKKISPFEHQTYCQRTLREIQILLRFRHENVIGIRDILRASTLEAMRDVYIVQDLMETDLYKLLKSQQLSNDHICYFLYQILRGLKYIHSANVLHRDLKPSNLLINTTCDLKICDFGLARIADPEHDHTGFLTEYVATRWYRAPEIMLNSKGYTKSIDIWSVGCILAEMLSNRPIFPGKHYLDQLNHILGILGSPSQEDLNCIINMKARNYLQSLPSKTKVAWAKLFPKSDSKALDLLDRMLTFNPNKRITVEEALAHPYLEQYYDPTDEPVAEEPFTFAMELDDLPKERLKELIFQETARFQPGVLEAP
Sequence of UniProt D0VWV4 (whole entry, looked up): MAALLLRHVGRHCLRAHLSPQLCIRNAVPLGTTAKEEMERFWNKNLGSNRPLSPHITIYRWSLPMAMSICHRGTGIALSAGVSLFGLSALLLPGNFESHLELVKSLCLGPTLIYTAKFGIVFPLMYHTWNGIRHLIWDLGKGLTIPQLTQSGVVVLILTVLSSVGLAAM
Sequence of UniProt P22303 (whole entry, looked up): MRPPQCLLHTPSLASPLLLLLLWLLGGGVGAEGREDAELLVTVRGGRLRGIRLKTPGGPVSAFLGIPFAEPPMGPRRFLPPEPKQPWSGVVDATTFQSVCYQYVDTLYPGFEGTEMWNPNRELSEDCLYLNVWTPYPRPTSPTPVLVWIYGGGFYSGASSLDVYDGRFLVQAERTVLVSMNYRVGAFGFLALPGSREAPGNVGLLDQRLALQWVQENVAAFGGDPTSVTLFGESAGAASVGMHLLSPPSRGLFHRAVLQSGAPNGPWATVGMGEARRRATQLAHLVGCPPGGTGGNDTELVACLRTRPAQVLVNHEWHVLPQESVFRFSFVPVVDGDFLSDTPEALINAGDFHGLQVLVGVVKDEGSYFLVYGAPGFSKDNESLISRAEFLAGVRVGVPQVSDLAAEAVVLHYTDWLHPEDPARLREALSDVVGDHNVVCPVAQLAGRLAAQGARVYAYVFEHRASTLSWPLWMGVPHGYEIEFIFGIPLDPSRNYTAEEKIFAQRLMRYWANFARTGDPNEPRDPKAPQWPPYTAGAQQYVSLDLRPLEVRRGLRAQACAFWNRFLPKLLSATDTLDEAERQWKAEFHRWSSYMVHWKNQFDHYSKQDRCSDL
Sequence of UniProt Q007T0 (whole entry, looked up): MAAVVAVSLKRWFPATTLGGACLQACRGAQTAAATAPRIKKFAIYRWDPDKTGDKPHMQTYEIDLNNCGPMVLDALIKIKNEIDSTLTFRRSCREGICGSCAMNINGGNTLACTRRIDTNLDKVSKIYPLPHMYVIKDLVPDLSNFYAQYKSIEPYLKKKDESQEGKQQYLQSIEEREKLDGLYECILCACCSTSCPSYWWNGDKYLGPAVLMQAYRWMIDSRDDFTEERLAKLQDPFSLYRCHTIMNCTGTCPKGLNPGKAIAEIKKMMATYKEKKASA
Sequence of UniProt A5GZW8 (whole entry, looked up): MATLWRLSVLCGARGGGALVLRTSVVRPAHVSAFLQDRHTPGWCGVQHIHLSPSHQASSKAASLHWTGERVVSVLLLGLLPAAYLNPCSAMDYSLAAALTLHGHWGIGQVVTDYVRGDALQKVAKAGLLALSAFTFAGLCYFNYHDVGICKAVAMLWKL
Sequence of UniProt P36544 (whole entry, looked up): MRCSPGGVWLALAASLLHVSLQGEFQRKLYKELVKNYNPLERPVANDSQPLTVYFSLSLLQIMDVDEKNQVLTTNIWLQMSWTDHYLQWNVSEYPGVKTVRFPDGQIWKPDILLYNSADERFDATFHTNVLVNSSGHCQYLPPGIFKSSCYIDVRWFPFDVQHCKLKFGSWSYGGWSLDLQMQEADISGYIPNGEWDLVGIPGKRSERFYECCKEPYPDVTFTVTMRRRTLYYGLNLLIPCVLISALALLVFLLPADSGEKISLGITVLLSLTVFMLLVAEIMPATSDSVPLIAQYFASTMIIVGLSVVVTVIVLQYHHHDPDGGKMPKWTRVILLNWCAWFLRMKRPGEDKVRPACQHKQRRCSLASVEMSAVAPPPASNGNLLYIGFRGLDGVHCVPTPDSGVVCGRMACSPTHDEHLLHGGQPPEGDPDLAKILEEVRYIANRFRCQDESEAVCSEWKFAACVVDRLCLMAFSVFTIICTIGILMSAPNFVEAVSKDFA
Sequence of UniProt P32245 (whole entry, looked up): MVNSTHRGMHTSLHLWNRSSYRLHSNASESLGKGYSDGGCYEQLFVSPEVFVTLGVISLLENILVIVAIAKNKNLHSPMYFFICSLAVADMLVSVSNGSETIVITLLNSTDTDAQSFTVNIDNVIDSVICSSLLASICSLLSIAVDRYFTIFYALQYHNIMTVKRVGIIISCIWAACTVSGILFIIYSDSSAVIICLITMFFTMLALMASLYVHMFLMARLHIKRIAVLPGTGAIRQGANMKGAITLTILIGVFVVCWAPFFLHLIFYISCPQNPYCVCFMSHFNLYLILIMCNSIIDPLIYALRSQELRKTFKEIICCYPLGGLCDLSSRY
Sequence of UniProt Q12933 (whole entry, looked up): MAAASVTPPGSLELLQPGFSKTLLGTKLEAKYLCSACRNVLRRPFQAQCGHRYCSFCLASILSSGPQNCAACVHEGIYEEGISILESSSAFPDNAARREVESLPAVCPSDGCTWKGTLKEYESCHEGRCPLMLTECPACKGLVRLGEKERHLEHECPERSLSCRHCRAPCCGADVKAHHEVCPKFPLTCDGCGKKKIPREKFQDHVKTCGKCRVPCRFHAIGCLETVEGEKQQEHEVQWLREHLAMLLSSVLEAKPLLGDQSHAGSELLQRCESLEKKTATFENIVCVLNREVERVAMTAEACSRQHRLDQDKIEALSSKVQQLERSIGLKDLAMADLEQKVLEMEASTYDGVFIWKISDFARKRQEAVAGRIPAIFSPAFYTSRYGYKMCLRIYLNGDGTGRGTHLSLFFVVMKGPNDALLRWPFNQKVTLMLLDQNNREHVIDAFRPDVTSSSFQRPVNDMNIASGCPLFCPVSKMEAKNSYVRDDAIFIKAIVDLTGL
Sequence of UniProt Q8TDU6 (whole entry, looked up): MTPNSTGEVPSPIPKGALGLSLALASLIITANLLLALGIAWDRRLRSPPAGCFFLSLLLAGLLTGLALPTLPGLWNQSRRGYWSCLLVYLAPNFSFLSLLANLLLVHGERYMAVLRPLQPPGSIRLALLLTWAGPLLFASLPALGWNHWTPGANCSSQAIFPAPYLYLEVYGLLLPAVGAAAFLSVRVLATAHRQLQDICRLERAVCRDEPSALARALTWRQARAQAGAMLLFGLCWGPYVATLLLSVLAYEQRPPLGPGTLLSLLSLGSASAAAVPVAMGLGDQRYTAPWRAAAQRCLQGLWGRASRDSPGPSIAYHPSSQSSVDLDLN
Sequence of UniProt O42275 (whole entry, looked up): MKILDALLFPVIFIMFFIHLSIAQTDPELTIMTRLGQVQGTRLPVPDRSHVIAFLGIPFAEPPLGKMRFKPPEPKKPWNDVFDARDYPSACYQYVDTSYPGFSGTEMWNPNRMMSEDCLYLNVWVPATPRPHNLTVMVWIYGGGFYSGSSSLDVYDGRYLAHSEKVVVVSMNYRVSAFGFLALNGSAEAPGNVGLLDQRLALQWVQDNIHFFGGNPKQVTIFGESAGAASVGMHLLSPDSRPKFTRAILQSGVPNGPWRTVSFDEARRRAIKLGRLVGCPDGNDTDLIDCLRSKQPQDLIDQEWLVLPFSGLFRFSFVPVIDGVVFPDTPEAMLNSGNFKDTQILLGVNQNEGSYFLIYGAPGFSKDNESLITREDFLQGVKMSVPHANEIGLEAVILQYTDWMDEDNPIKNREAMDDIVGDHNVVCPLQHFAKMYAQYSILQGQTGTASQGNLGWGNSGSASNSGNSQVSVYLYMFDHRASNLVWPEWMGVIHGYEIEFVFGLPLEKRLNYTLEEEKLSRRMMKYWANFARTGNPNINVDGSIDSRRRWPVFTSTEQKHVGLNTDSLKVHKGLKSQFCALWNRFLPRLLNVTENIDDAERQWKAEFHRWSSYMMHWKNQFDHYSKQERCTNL
Sequence of UniProt P23979 (whole entry, unmodified, looked up): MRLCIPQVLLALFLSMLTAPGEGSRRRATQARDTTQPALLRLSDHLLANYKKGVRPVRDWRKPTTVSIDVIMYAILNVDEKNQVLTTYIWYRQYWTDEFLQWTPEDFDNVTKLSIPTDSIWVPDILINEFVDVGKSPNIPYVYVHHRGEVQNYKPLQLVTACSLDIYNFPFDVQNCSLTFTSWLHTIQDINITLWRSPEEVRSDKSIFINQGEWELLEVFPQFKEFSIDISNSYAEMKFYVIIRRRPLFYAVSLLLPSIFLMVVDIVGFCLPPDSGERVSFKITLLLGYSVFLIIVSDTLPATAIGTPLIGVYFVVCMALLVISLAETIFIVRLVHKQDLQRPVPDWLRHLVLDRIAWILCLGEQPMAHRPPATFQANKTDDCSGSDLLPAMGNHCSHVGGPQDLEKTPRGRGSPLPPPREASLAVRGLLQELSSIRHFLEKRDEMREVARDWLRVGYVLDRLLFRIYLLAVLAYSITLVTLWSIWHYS

SMILES	target	test	test system	conditions	how to read	quantity	result
N[C@@H](Cn1oc(=O)[nH]c1=O)C(=O)O	uncharacterized protein (Ixodes scapularis, UniProt A0A0N9E2I2)	L-glutamate-like response, two-electrode voltage clamp	Xenopus laevis oocytes	100 µM	–	activity	inactive
O=C(Nc1cccnn1)N1CCC(=Cc2cccc(Oc3ccc(C(F)(F)F)cn3)c2)CC1	KATP channel, hamster	binding	–	10 µM, added: [3H]glyburide	–	inhibition	15%
Nc1nc2c(ncn2[C@@H]2O[C@H](COP(=O)(O)OP(=O)(O)OP(=O)(O)O)[C@@H](O)[C@H]2O)c(=O)[nH]1	GTP 3',8-cyclase (moaA, Staphylococcus aureus, UniProt P69848, R17K)	isothermal titration calorimetry	–	concentration not given, 25 °C, R17K mutant, anaerobic	–	binding entropy ΔS	4.99 cal/mol/K
CC[C@H](C)[C@H](NC(=O)CNC(=O)[C@@H](N)CCCCN)C(=O)N[C@@H](CC(C)C)C(=O)N[C@@H](CCCCN)C(=O)N[C@@H](CCCNC(=N)N)C(=O)N[C@@H](CCC(=O)O)C(=O)N[C@@H](CCCCN)C(=O)N[C@@H](CCCNC(=N)N)C(=O)N[C@@H](CC(C)C)C(=O)N[C@@H](CCCNC(=N)N)C(=O)N[C@@H](CCCNC(=N)N)C(=O)N[C@@H](CCCCN)C(=O)N[C@@H](CC(N)=O)C(=O)N[C@H](C(=O)N[C@@H](Cc1c[nH]cn1)C(=O)N[C@@H](Cc1c[nH]c2ccccc12)C(=O)N1CCC[C@H]1C(=O)N[C@@H](CCC(=O)O)C(=O)N[C@@H](CCC(=O)O)C(=O)NCC(=O)N[C@@H](CCCCN)C(=O)N[C@@H](CC(C)C)C(=O)N[C@@H](CCCNC(=N)N)C(=O)N[C@@H](CCC(=O)O)C(=O)N[C@@H](Cc1ccc(O)cc1)C(=O)N[C@@H](Cc1ccccc1)C(=O)N[C@@H](Cc1ccc(O)cc1)C(=O)N[C@@H](Cc1ccccc1)C(=O)N[C@@H](CCC(=O)O)C(=O)N[C@@H](CC(C)C)C(=O)N[C@@H](CC(=O)O)C(=O)N[C@@H](CCC(=O)O)C(=O)N[C@@H](C)C(=O)N[C@@H](CCC(=O)O)C(=O)N[C@@H](CCCNC(=N)N)C(=O)N[C@H](C(=O)N[C@@H](CC(N)=O)C(=O)N[C@H](C(=O)O)C(C)C)C(C)C)C(C)C	protein phosphatase 1 complexes	bead binding, competitive inhibitor, inhibitor bead pulldown LC-MS/MS, measured: RPAP3	HeLa and HEK293T cells, cell lysate	concentration not given	relative to: compound over control	log2 fold change	-6.28
c1csc(-c2nnc3sc(Cc4ccc5c(c4)CCCC5)nn23)c1	PFF0160c E182D	enzyme activity, DCIP colorimetric	–	–	relative to: E182D mutant over wild type	IC50 ratio	1.3
c1ccc2c3c(ccc2c1)-c1cccc2cccc-3c12	Aryl hydrocarbon receptor (Danio rerio, UniProt Q9YGV3)	reporter gene, agonist, luciferase reporter	ZF-4	370.37 µM	relative to: vehicle control	fold change	16.6
CC[C@H]1NC(=O)[C@@H]2CSC(=N2)[C@H](Cc2ccccc2)N(C)C(=O)[C@@H]2CCCN2C(=O)[C@H](C(C)C)N(C)C(=O)[C@H](Cc2ccccc2)OC(=O)[C@H](C)[C@@H](C)NC(=O)[C@@H]([C@@H](C)O)NC(=O)[C@@H](CC(C)C)N(C)C(=O)[C@@H]2CSC1=N2	Dipeptidyl peptidase 8 (Homo sapiens, UniProt Q6V1X1)	–	–	–	relative to: IC50 DPP4 over DPP8	selectivity ratio	38.2 fold
COc1cc(Nc2ncc(F)c(Nc3ccc4c(n3)NC(=O)C(C)(C)O4)n2)cc(OC)c1OC	MAPK12 (Homo sapiens, UniProt P53778)	KINOMEscan	–	10 µM, p38-gamma	–	inhibition	99%
COC(=O)[C@@]1(O)C[C@H]2O[C@]1(C)n1c3ccccc3c3c4c(c5c6ccccc6n2c5c31)C(=O)NC4	MAPK3 (Homo sapiens, UniProt P27361)	ADP-Glo	–	10 µM, added: MBP substrate	–	kinase activity	0.823% and 8.98% and 2.01%
CCc1nonc1NC(=O)c1oc2c(C)c(C)ccc2c1C	PFF0160c E182D	enzyme activity, DCIP colorimetric	–	–	relative to: E182D mutant over wild type	IC50 ratio	2.4
CC1(C)CN(CCCCC(=O)N[C@H](Cc2ccc(O)c(I)c2)C(=O)N[C@H](Cc2ccccc2)C(=O)N[C@H](CCCCNC(=O)CCCCCCC(=O)NCCCC[C@H](NC(=O)N[C@@H](CCC(=O)O)C(=O)O)C(=O)O)C(=O)O)CC[N]2CC(C)(C)[S][Tc]2(=[O])[S]1 (stereo partly drawn) [technetium-99m labelled]	FOLH1 (Homo sapiens, UniProt Q04609)	saturation binding	LNCaP	–	–	Bmax	10.4 µmol/mg
C[C@H]1COCCN1c1nc(NCc2cccnc2C(F)(F)F)c2cccnc2n1	ADRA1A	binding	–	CEREP panel	–	IC50	> 100 µM
CCN1CCN(Cc2ccc(Nc3nc4ccc(Oc5ccnc(NC(=O)C6CCN(C)CC6)c5)cc4n3C)cc2C(F)(F)F)CC1	Protein kinase 6 (Plasmodium falciparum, UniProt Q8IDW1)	differential scanning fluorimetry	–	10 µM	–	Tm	50 °C
Clc1cc2c(cc1Cl)Oc1cc(Cl)c(Cl)cc1O2	Uncharacterized protein (Takifugu rubripes, UniProt Q4JHL3)	reporter gene, agonist, dual-luciferase	COS-7	0.1 µM, 28 h	relative to: DMSO	fold induction	3.13
CN(C(=O)n1cnc(-c2ccc[n+]([O-])c2)c1)C1CCCCC1	androgen-induced gene 1 protein (Rattus norvegicus, UniProt F7EZV5)	enzyme activity, ABPP	rat, brain	oral, 100 mg/kg/day, 7 days	relative to: vehicle	fold change	-2.6
CN1CCN(c2cc(-c3ccncc3)c(-c3ccc4ccccc4c3)nn2)CC1	GALR1 (Homo sapiens, UniProt P47211)	agonist, FLIPR	–	12.5 µM	–	activation	-1%
CC[C@H](C)[C@H](NC(C)=O)C(=O)N[C@@H](CCC(=O)O)C(=O)N[C@H](C(=O)N[C@H](C=O)CC(=O)O)[C@@H](C)O	Caspase-5 (CASP5, Homo sapiens, UniProt P51878)	–	–	–	–	Hill slope	-0.88
CC[C@@H](C)[C@@H](NC(=O)[C@@H](Cc1ccc(O)cc1)NC(=O)[C@H]1CCCN1C(=O)[C@@H](CCCNC(=N)N)NC(=O)[C@H](N)Cc1c[nH]cn1)C(=O)N[C@H](C)C(=O)N[C@H](Cc1c[nH]cn1)C(=O)N[C@H](CCCNC(=N)N)C(=O)N[C@H](CCCCNC(=O)c1cccc(S(=O)(=O)F)c1)C(=O)N[C@H](Cc1ccc(O)cc1)C(=O)N[C@H](CO)C(=O)N[C@H](Cc1ccccc1)C(N)=O	Transferrin receptor protein 1 (Tfrc, Mus musculus, UniProt Q62351)	flow cytometry	DC2.4	2 h, pH 7.4, unit not given	relative to: 0 h	surface TFRC expression	1.02
CCN1/C(=C/C(C)=O)Sc2ccc(F)cc21	ADRA2B (Homo sapiens, UniProt P18089)	TGFα shedding	–	–	relative to: α2A over α2B	IC50 ratio	> 12
CCCCOc1ccccc1C(=O)NCc1csc(-c2ccccc2)n1	PFF0160c E182D	enzyme activity, DCIP colorimetric	–	–	relative to: E182D mutant over wild type	IC50 ratio	1.4

SMILES	target	test	test system	conditions	how to read	quantity	result
COc1cc2nccc(Oc3ccc(NC(=O)c4cc5c(n(-c6ccccc6)c4=O)CCCC5=O)nc3)c2cc1OC	MET (Homo sapiens, UniProt P08581)	cell viability, CellTiter-Glo	Ba/F3 expressing recombinant kinase	–	relative to: MET IC50 over AXL IC50	selectivity ratio	> 100
O=C(c1ccc(Cl)cc1)N1CCN2C(=O)N(OC(=O)N3CCOc4ccccc43)C(=O)C2C1 (stereo not drawn)	Patatin-like phospholipase domain-containing protein 6 (PNPLA6, Homo sapiens, UniProt Q8IY17)	enzyme activity, inhibitor, MS-based ABPP	SW-620 in situ	10 µM, 2 h, 37 °C	relative to: compound over DMSO, lower = stronger inhibition	median ratio	1.12
COc1cc(N)c(Cl)cc1C(=O)NC1CN2CCC1CC2 (stereo not drawn)	GPBAR1 (Homo sapiens, UniProt Q8TDU6)	receptor activation, TANGO luminescence	–	concentration not given, unconfirmed screen	relative to: vehicle control	log2 fold change	0.162
[2H]c1c([2H])c([C@]2([2H])CCCN2C(=O)C(C)(C)Oc2ccc3cn[nH]c3c2)c([2H])c([2H])c1C([2H])([2H])[2H]	Mast/stem cell growth factor receptor Kit, autoinhibited (KIT, Homo sapiens, UniProt P10721)	KINOMEscan	–	1 µM	relative to: DMSO control	remaining binding	71%
CCNC(=O)NCCCOc1cccc(CN2CCCCC2)c1	ACHE	–	biochemical	concentration not given	–	activity class	inactive
CCOC(=O)COc1ccc2c(=O)c3ccccc3oc2c1	ache (Electrophorus electricus, UniProt O42275)	enzyme activity	–	0.42 µM, added: substrate 0.43 mM	higher = faster reaction	reaction velocity	0.0006 a.u.
C=C(CN(C(=O)c1c(C(F)F)nn(C)c1F)C1CC1)c1ccc(Cl)cc1Cl	SDHD/SDHC/SDHB (Sus scrofa, UniProt A5GZW8+D0VWV4+Q007T0)	enzyme activity, inhibitor, DCIP reduction	pig	0.1 µM, added: DCIP 20 µM	–	reaction velocity	0.00682 µM/s and 0.00691 µM/s and 0.00698 µM/s
COc1ccc(N2C(=O)N(c3c(C)cccc3Cl)Cc3cnc(Nc4ccc(C5CCN(C)CC5)cc4OC)nc32)nc1	PRKD3 (Homo sapiens, UniProt O94806)	kinase activity	–	0.5 µM	–	inhibition	28%
C=C(F)c1sc(CNCCCNc2cc(O)c3ccccc3n2)c(C)c1Br	ACHE	–	biochemical	concentration not given	–	activity class	inactive
O=C(O)CCC(=O)C(=O)O	HIF1AN (Homo sapiens, UniProt Q9NWT6, E105A)	cosubstrate	–	pH 7.00, 37.0 °C, mutant E105A, added: CTAD peptide 100 µM, cosubstrate 217 µM	–	Km	9 ± 2 µM
CC(c1ccc(OC(F)(F)F)cc1)c1nn2c(-c3cccs3)nnc2s1 (stereo not drawn)	PFF0160c E182D	enzyme activity, DCIP colorimetric	–	–	relative to: E182D mutant over wild type	IC50 ratio	0.6
CCc1cc(O)cc2c(/C=N/NC(=N)NCCc3ccc(Cl)cc3)c[nH]c12	RXFP4 (Homo sapiens, UniProt Q8TDU9)	–	–	–	–	Emax	99 ± 3%
CC(=O)c1cnc2ccc(-c3cc(Cl)c(O)c(Cl)c3)nc2c1N[C@H]1CC[C@H](CN(C)C)CC1	ACHE	–	biochemical	concentration not given	–	activity class	inactive
CN1C2CCCC1CC(NC(=O)c1nn(C)c3ccccc13)C2 (stereo not drawn)	Htr3a (Mus musculus, UniProt P23979, W90X)	antagonist, voltage clamp	Xenopus oocytes	–	–	Hill coefficient	-1.1 ± 0.1
O=C(Nc1cnccc1Cl)N1CCN(Cc2ccc3c(c2)OC(F)(F)O3)CC1	MC4R (Homo sapiens, UniProt P32245)	radioligand binding	–	concentration not given	–	inhibition	12% and 17%
COc1c(Cl)c2c3c(c1OC)-c1cc4c(cc1C[C@@H]3N(C)CC2)OCO4	ADRA1A	calcium flux, antagonist, FLIPR	CHO-K1	added: norepinephrine	–	apparent Kb	1.27 ± 0.12 µM
C[N+](C)(C)[C@@H](Cc1c[nH]c(=S)[nH]1)C(=O)[O-]	Ergothioneine transport permease/ergothioneine binding protein EgtU, substrate-binding domain (egtU, Helicobacter pylori, UniProt B5Z7I3)	ITC	–	30 °C, substrate-binding domain	–	ΔS	12.8 ± 3.4 cal/mol/K
COc1ccc2[nH]c3c(c2c1)CCN(C)CC3.Cl	CHRNA7 (Homo sapiens, UniProt P36544)	ion current, inhibitor, two-electrode voltage clamp	Xenopus laevis oocytes	10 µM, human receptor, added: acetylcholine 100 µM	–	recovery time constant	8.7 s
C[C@H]1CN(c2n[nH]c3nc(N[C@H]4CC[C@H](NS(=O)(=O)CCC(F)(F)F)CC4)ncc23)CCO1	TNF receptor-associated factor 2 (Homo sapiens, UniProt Q12933)	Kinobeads competition, measured: TRAF2	–	20 µM, unit not given	relative to: vehicle	remaining binding	1.08

Some of these lines once more:
SMILES	target	test	test system	conditions	how to read	quantity	result
CN(C(=O)n1cnc(-c2ccc[n+]([O-])c2)c1)C1CCCCC1	androgen-induced gene 1 protein (Rattus norvegicus, UniProt F7EZV5)	enzyme activity, ABPP	rat, brain	oral, 100 mg/kg/day, 7 days	relative to: vehicle	fold change	-2.6
COc1cc2nccc(Oc3ccc(NC(=O)c4cc5c(n(-c6ccccc6)c4=O)CCCC5=O)nc3)c2cc1OC	MET (Homo sapiens, UniProt P08581)	cell viability, CellTiter-Glo	Ba/F3 expressing recombinant kinase	–	relative to: MET IC50 over AXL IC50	selectivity ratio	> 100
c1csc(-c2nnc3sc(Cc4ccc5c(c4)CCCC5)nn23)c1	PFF0160c E182D	enzyme activity, DCIP colorimetric	–	–	relative to: E182D mutant over wild type	IC50 ratio	1.3
